Experimental data gathered from unrelated publications.
A part holds a random share of what one study measured.
UniProt Q8WU08, sequence (whole entry, looked up): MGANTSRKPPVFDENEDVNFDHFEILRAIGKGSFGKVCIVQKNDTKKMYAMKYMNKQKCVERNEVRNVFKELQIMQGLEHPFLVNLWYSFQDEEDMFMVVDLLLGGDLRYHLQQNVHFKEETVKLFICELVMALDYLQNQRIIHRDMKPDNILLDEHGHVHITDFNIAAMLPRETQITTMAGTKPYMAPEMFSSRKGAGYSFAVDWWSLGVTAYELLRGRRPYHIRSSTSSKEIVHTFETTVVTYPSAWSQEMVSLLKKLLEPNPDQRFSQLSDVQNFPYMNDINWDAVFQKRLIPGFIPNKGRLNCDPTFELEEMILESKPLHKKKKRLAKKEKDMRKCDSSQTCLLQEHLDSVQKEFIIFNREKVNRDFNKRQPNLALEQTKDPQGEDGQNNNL
UniProt P48730, sequence (whole entry, looked up): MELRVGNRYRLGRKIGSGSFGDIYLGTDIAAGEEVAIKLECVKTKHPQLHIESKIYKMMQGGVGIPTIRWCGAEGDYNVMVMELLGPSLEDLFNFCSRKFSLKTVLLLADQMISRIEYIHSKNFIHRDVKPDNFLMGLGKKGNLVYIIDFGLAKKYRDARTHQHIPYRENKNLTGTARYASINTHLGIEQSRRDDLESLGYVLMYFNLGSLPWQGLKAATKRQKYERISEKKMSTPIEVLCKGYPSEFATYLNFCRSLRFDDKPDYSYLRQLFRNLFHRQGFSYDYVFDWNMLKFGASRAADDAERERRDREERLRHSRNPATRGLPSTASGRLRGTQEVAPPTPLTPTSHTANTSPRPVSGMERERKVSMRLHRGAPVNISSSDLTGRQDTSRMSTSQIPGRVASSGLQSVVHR
UniProt Q9UPE1, sequence (whole entry, looked up): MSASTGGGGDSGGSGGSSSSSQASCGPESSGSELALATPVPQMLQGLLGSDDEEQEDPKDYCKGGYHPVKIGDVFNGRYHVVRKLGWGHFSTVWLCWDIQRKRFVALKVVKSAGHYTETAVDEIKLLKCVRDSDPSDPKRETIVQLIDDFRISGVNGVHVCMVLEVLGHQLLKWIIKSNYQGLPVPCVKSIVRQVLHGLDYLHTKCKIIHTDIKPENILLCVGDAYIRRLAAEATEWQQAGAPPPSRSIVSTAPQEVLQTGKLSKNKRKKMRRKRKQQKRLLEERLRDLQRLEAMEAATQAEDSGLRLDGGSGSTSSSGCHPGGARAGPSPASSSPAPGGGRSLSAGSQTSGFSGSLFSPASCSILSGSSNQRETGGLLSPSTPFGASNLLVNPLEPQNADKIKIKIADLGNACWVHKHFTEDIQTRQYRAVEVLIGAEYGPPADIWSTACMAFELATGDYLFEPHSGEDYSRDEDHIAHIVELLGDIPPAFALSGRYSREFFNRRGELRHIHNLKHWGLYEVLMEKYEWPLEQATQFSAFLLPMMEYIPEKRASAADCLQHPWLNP
UniProt Q8N5S9, sequence (whole entry, looked up): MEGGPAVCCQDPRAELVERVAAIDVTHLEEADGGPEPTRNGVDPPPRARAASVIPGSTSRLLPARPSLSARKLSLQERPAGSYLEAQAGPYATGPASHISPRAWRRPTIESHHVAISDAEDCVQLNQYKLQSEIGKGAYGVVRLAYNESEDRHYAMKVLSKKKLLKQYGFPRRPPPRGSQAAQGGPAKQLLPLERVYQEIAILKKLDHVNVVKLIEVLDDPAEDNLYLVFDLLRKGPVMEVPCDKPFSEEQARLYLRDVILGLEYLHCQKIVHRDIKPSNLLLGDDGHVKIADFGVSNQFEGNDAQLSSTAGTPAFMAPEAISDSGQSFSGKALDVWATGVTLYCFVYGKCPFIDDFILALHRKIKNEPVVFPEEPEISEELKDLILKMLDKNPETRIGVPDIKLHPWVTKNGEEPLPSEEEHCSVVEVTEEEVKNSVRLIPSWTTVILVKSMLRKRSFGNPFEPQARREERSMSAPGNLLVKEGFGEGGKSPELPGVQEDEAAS
UniProt P10721, sequence (whole entry, unmodified, looked up): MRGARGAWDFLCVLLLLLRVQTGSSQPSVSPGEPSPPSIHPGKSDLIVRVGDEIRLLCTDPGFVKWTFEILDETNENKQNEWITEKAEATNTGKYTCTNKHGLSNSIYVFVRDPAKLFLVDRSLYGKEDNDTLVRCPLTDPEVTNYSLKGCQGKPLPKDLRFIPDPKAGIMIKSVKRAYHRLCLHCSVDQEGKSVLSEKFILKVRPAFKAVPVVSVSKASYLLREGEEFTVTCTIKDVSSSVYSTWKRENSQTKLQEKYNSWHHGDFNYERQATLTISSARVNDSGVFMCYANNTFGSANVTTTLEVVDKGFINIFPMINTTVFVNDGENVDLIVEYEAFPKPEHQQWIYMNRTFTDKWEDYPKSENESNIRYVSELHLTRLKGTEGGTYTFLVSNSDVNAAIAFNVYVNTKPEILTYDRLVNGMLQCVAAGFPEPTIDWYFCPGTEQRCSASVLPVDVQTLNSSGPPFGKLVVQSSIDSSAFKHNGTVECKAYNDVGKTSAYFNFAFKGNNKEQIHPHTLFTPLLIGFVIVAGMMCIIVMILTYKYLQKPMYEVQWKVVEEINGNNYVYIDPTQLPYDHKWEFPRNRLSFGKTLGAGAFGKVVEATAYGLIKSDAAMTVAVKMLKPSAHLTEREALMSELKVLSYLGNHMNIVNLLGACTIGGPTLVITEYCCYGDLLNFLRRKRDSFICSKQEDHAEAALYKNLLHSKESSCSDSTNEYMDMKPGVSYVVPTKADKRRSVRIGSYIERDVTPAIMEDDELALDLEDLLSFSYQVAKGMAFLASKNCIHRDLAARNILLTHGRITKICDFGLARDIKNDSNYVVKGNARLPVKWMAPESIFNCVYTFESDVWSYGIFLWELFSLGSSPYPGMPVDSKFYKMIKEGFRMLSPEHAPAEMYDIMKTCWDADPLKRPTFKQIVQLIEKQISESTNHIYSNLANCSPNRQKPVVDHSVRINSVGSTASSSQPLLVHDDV
UniProt Q05655, sequence (whole entry, looked up): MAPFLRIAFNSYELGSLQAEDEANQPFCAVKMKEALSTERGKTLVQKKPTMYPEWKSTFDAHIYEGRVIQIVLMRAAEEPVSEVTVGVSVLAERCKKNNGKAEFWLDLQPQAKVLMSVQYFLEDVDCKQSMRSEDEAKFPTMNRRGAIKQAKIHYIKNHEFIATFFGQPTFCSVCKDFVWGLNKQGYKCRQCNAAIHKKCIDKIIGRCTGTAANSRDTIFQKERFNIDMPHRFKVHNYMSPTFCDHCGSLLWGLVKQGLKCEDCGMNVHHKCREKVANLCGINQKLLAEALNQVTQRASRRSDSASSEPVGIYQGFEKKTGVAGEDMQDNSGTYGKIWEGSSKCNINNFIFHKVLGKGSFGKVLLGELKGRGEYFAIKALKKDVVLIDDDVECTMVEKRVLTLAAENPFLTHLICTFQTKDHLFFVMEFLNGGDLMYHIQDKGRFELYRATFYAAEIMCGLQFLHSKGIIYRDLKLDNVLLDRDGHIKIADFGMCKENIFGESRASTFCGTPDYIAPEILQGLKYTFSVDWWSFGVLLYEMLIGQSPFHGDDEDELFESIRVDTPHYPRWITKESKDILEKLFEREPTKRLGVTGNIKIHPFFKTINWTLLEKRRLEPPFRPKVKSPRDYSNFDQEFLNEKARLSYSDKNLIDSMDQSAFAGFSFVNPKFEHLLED
UniProt Q9UPZ9, sequence (whole entry, looked up): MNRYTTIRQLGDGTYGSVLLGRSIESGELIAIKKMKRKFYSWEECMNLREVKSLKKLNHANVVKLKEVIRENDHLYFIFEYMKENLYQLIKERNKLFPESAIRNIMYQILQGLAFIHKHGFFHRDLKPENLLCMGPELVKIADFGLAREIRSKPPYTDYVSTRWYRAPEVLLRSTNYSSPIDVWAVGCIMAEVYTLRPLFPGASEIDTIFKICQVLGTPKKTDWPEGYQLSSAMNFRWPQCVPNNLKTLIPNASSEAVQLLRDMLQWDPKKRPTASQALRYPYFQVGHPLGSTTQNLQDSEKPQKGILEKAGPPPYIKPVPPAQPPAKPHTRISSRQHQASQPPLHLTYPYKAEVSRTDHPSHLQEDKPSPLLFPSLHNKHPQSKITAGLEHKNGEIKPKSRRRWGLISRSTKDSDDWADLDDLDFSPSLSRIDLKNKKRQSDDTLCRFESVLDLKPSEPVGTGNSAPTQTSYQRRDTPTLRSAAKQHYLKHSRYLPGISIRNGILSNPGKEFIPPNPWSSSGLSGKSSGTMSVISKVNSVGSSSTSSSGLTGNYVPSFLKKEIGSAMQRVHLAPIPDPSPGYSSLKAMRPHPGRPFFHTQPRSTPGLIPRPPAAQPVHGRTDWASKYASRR
UniProt Q6P2M8, sequence (whole entry, looked up): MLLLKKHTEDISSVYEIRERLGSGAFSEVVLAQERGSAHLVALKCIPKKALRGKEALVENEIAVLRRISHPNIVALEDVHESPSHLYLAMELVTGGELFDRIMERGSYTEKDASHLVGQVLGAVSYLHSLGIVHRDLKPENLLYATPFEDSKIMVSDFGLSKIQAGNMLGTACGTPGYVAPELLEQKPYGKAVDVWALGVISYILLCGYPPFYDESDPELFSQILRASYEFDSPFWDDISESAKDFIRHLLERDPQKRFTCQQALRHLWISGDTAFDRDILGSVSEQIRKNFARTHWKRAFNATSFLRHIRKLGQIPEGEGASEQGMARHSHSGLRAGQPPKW

Block 1
Structure (SMILES): Cn1nc(C(=O)NCc2ccc(C(=O)O)cc2)cc1-c1ccc2[nH]ccc2c1
Read-out: cell-free assay
Technique: competition with immobilised ligand
Concentration: 0.1 µM
Endpoint: remaining binding
target = Mast/stem cell growth factor receptor Kit (KIT, Homo sapiens, UniProt P10721, L576P); result = 59%
target = Tyrosine-protein kinase Srms (SRMS, Homo sapiens, UniProt Q9H3Y6); result = 81%
target = SRSF protein kinase 3 (SRPK3, Homo sapiens, UniProt Q9UPE1); result = 100%
target = Casein kinase I isoform delta (CSNK1D, Homo sapiens, UniProt P48730); result = 84%
target = Dual specificity tyrosine-phosphorylation-regulated kinase 1B (DYRK1B, Homo sapiens, UniProt Q9Y463); result = 100%
target = Maternal embryonic leucine zipper kinase (MELK, Homo sapiens, UniProt Q14680); result = 86%
target = Calcium/calmodulin-dependent protein kinase type 1B (PNCK, Homo sapiens, UniProt Q6P2M8); result = 100%
target = Serine/threonine-protein kinase 32A (STK32A, Homo sapiens, UniProt Q8WU08); result = 92%
target = Dual specificity mitogen-activated protein kinase kinase 7 (MAP2K7, Homo sapiens, UniProt O14733); result = 95%
target = Protein kinase C delta type (PRKCD, Homo sapiens, UniProt Q05655); result = 89%
target = Calcium/calmodulin-dependent protein kinase kinase 1 (CAMKK1, Homo sapiens, UniProt Q8N5S9); result = 85%
target = Vascular endothelial growth factor receptor 3 (FLT4, Homo sapiens, UniProt P35916); result = 43%
target = Serine/threonine-protein kinase ICK (CILK1, Homo sapiens, UniProt Q9UPZ9); result = 72%
target = Cytoplasmic tyrosine-protein kinase BMX (BMX, Homo sapiens, UniProt P51813); result = 98%
target = Serine/threonine-protein kinase 38 (STK38, Homo sapiens, UniProt Q15208); result = 92%
target = Tyrosine-protein kinase ABL1, non-phosphorylated (ABL1, Homo sapiens, UniProt P00519, F317L); result = 87%

Block 2
Target: Tyrosine-protein kinase CSK (CSK, Homo sapiens, UniProt P41240)
UniProt P41240, sequence (whole entry, looked up): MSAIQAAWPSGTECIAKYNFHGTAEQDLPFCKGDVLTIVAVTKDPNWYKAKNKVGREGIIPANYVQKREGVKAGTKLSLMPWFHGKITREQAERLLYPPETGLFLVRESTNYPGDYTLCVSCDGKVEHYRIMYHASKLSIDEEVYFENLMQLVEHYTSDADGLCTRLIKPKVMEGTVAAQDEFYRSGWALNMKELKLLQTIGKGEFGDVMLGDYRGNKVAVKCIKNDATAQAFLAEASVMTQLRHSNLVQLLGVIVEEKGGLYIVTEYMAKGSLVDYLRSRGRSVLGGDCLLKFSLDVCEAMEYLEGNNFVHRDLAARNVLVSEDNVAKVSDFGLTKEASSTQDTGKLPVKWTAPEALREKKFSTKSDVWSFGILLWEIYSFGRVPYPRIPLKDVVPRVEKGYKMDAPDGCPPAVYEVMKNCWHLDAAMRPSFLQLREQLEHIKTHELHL
Read-out: enzyme activity
Mode: inhibitor
Concentration: 0.5 µM
Relative to: control
Endpoint: remaining activity
Compound = Nc1cccc(-c2cc3c(Oc4cccc(O)c4)ncnc3[nH]2)c1; result = 43.6%
Compound = Cc1cc2ncc(-c3ccccc3)nc2cc1C; result = 96.5%
Compound = C[C@@H]1CCN(C(=O)CC#N)C[C@@H]1N(C)c1ncnc2[nH]ccc12; result = 101%
Compound = CCN(CC)CCNC(=O)c1c(C)[nH]c(/C=C2\C(=O)Nc3ccc(F)cc32)c1C; result = 90.2%
Compound = Ic1cccc(CSc2nnc(-c3ccncc3)o2)c1; result = 101%
Compound = Cn1nc2c3c(cccc31)C(=O)c1ccccc1-2; result = 88.7%
Compound = O=C1C(Cl)=C(N2C(=O)CCC2=O)C(=O)c2ccccc21; result = 79.5%
Compound = CCOc1nc(NC(=O)Cc2cc(OC)ccc2OC)cc(N)c1C#N; result = 95.1%
Compound = N#C/C(=C\c1ccc(O)c(O)c1)C(=O)NCc1ccccc1; result = 101%
Compound = CN([C@@H](Cc1ccc(OS(=O)(=O)c2cccc3cnccc23)cc1)C(=O)N1CCN(c2ccccc2)CC1)S(=O)(=O)c1cccc2cnccc12; result = 96.2%
Compound = c1ccc(-c2cnc(Nc3ccc(OCCN4CCCC4)cc3)s2)cc1; result = 89.9%
Compound = O=C(NC(NC(=S)Nc1ccc(F)c([N+](=O)[O-])c1)C(Cl)(Cl)Cl)C(c1ccccc1)c1ccccc1 (centres unmarked); result = 99.3%
Compound = CCN(CC)CCNC(=O)c1c(C)[nH]c(/C=C2\C(=O)Nc3ccc(Cl)cc32)c1C; result = 86.3%
Compound = CCN(CC)C(=O)c1ccc(Nc2nc(OCC3CCCCC3)c3[nH]cnc3n2)cc1; result = 83.1%

Mixed results
Structure (SMILES) = CC/C(=C(\c1ccccc1)c1ccc(OCCN(C)C)cc1)c1ccccc1; tested on = HepG2; conditions = concentration not given; how to read = relative to: vehicle; endpoint = viability; result = 0.43%
Structure (SMILES) = CC(C)n1cnc(-c2ccc(F)cc2)c1-c1ncc(C(=O)Nc2ccc(N3CCN(C)CC3)cc2)[nH]1; assay = phase 2a clinical trial; test system = patients with idiopathic pulmonary fibrosis; conditions = 30 mg once daily; endpoint = patients with chronic gastritis TEAE; result = 0%
